Measured values gathered from unrelated publications.
Each line is one published result; not all experiments were run side by side. Several values in a cell are separate wells, animals, samples, runs or records. ± gives the spread as reported.

| SMILES | tested on | test | system | setting | endpoint | result |
| --- | --- | --- | --- | --- | --- | --- |
| CC(c1ccccc1)(c1ccc(O)cc1)c1ccc(O)cc1 | HepG2 spheroids, dissociated | annexin V-FITC/PI flow cytometry |  | 10 µM, 96 h | early apoptotic cells | 7.47 ± 0.94% |
| N=C(N)NCCC[C@H](NC(=O)CN)C(=O)N[C@@H](Cc1c[nH]c2ccccc12)C(=O)N[C@@H](CCCNC(=N)N)C(=O)N[C@@H](Cc1c[nH]c2ccccc12)C(=O)N[C@@H](Cc1c[nH]c2ccccc12)C(=O)N[C@@H](Cc1c[nH]c2ccccc12)C(=O)N[C@@H](CCCNC(=N)N)C(=O)N[C@@H](Cc1c[nH]c2ccccc12)C(=O)N[C@@H](CCCNC(=N)N)C(=O)N[C@@H](Cc1ccccc1)C(N)=O | PK-15 |  |  |  | LC50 | 103 µM |
| COc1cc2c(O)c3c(c(-c4ccc5c(c4)OCO5)c2cc1OC)C(=O)OC3 | HeLa |  |  | 24 h | CC50 | > 100 µM |
| Oc1ccc(C2(c3ccc(O)cc3)c3ccccc3-c3ccccc32)cc1 | HepG2 spheroids, dissociated | annexin V-FITC/PI flow cytometry |  | 0.10 µM, 96 h | early apoptotic cells | 5.7 ± 2.49% |
| CC[C@H](C)[C@H](NC(=O)[C@H](CC(=O)O)NC(=O)CNC(=O)[C@H](CCCCN)NC(=O)[C@H](C)NC(=O)[C@H](CS)NC(=O)[C@H](CC(C)C)NC(=O)[C@H](CCCNC(=N)N)NC(=O)[C@H](CO)NC(=O)[C@H](Cc1ccccc1)NC(=O)[C@H](Cc1ccc(O)cc1)NC(=O)[C@H](C)NC(=O)[C@H](CC(C)C)NC(=O)[C@H](CC(C)C)NC(=O)[C@H](CC(C)C)NC(=O)[C@H](CC(C)C)NC(=O)[C@@H]1CCCN1C(=O)[C@@H](N)CCCNC(=N)N)C(=O)N1CCC[C@H]1C(=O)N1CCC[C@H]1C(=O)N1CCC[C@H]1C(=O)N[C@@H](CC(C)C)C(=O)N[C@@H](CCCNC(=N)N)C(=O)N[C@@H](C)C(=O)N[C@@H](CC(C)C)C(=O)N1CCC[C@H]1C(=O)N[C@@H](CCCNC(=N)N)C(=O)N[C@@H](Cc1ccc(O)cc1)C(=O)N[C@@H](CCCNC(=N)N)C(=O)N[C@@H](CC(C)C)C(=O)N[C@@H](CC(C)C)C(=O)N[C@@H](CCCNC(=N)N)C(=O)N[C@@H](CC(=O)O)C(=O)N[C@@H](CC(C)C)C(=O)N1CCC[C@H]1C(=O)N[C@@H](CCCNC(=N)N)C(=O)N[C@@H](CC(C)C)C(=O)N[C@@H](CC(C)C)C(=O)N[C@@H](CCCNC(=N)N)C(=O)O | PMA-differentiated THP-1 | cell viability, MTT |  | 24 h | CC50 | 60.6 µM |
| O=S(=O)(c1ccc(O)cc1)c1ccc(O)cc1 | HepG2 spheroids, dissociated | annexin V-FITC/PI flow cytometry |  | 10 µM, 96 h | early apoptotic cells | 6.28 ± 3.58% |
| O=c1ccc2ccccc2o1 | NHEK | cell count |  | concentration not given, 24 h, heat and osmotic shock panel | chance response | 0.02% |
| CC(C)C[C@H](NC(=O)[C@H](C)NC(=O)[C@@H](NC(=O)[C@H](CCCNC(=N)N)NC(=O)[C@H](CC(C)C)NC(=O)[C@H](Cc1c[nH]c2ccccc12)NC(=O)[C@@H]1CCCN1C(=O)[C@@H](N)CCCCN)C(C)C)C(=O)N[C@@H](CS)C(=O)N1CCC[C@H]1C(=O)NCC(=O)O | H9c2 | WST-1 |  | 16 µM, 24 h | viability | 92.8% and 101% and 114% |
| Cc1cc(NC(=O)c2cc3c(=O)n4cccc(C)c4nc3n2C)ccc1Br | Vero | MTT |  | 25 µM, 24 (unit not given) | viability | 62.4% |
| CNS(=O)(=O)c1ccc(CCNC(=O)c2cc(Cl)ccc2OC)cc1 | THP-1 ASC-GFP monocytes | MTT |  | 24 h | maximum tolerated dose | 1.56 µg/mL |
| CC[C@H](C)[C@H](NC(=O)CN)C(=O)N[C@@H](Cc1c[nH]c2ccccc12)C(=O)N[C@@H](CC(=O)O)C(=O)N[C@@H](CCSC)C(=O)N[C@H](C(=O)N[C@@H](CCCNC(=N)N)C(=O)N[C@@H](CCCCN)C(=O)N[C@H](C(=O)N[C@@H](CCCNC(=N)N)C(=O)N[C@H](C(=O)N[C@H](C(=O)N[C@H](C(=O)N[C@@H](CCCNC(=N)N)C(=O)N[C@@H](CCCCN)C(=O)N[C@@H](C)C(=O)N[C@@H](CCCCN)C(=O)N[C@@H](CCC(N)=O)C(=O)N[C@H](C(=O)N[C@@H](CCCCN)C(=O)N[C@H](C(=O)N[C@@H](Cc1ccccc1)C(=O)N[C@H](C(=O)N[C@@H](CC(N)=O)C(=O)NCC(=O)N[C@@H](CCCCN)C(=O)NCC(=O)N[C@H](C(=O)N[C@@H](CCC(N)=O)C(=O)O)C(C)C)[C@@H](C)CC)[C@@H](C)O)[C@@H](C)CC)[C@@H](C)CC)C(C)C)[C@@H](C)O)C(C)C)[C@@H](C)CC | HUVEC | cytotoxicity, MTT |  | 24 h, 37 °C | IC50 | 13.1 µM |
| C[C@@H]1CC[C@H]2[C@@H](C)C(=O)O[C@@H]3O[C@@]4(C)CC[C@@H]1[C@]32OO4 | Plasmodium falciparum |  | W2 |  | IC50 | 0.008 µM |
| O=C(N/N=C/c1ccc(Cl)cc1Cl)c1n[nH]c2c1CCC2 | Gag-Pol polyprotein, integrase with LEDGF/p75 (gag-pol, Human immunodeficiency virus 1, UniProt P12497) | LEDGF/p75-integrase interaction, inhibitor, AlphaScreen |  |  | IC50 | > 50 µM |
| Oc1ccc(C(c2ccc(O)cc2)(C(F)(F)F)C(F)(F)F)cc1 | HepG2 spheroids | annexin V-FITC/PI flow cytometry |  | 1 µM, 96 h | necrotic cells | 32.4 ± 11.3% |
| CCCC1O[C@@H]2C[C@H]3[C@@H]4CCC5=CC(=O)C=C[C@]5(C)[C@H]4[C@@H](O)C[C@]3(C)[C@]2(C(=O)CO)O1 (stereo partly drawn) | Plasmodium falciparum |  | 7G8 |  | IC50 | 1.58 µM |
